Experimental data pooled from the literature.
Ephx2: Bifunctional epoxide hydrolase 2 (Ephx2, Mus musculus, UniProt P34914)
Sequence of UniProt P34914 (whole entry, looked up): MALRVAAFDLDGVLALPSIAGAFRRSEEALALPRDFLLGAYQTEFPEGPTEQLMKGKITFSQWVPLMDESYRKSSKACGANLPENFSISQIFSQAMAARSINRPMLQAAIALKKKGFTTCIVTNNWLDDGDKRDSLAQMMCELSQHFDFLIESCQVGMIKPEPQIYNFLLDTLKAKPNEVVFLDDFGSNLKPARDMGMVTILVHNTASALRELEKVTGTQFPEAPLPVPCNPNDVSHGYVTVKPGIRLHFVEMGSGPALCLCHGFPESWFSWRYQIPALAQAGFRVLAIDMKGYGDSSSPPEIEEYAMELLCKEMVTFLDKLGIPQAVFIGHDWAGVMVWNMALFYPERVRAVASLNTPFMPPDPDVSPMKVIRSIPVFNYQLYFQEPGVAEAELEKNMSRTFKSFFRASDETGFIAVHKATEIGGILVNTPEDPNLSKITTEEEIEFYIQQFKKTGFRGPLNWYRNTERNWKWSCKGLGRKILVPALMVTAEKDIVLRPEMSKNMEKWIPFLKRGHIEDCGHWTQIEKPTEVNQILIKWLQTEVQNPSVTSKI
Ephx2 N-terminal phosphatase domain: Bifunctional epoxide hydrolase 2, N-terminal phosphatase domain (Ephx2, Mus musculus, UniProt P34914)

The IC50 of `C[C@]12C[C@@H]3C[C@](C)(C1)C[C@@](NC(=O)Nc1ccc(CN4CCC[C@H](C(=O)NCCCCCCC(=O)NO)C4)cc1F)(C3)C2` is reported as 0.7 nM (Ephx2; enzyme activity, inhibitor, fluorescence).
For `O=C(Nc1ccc(O)c2ccccc12)NC1CCCCC1`, the IC50 was 650 nM (Ephx2; enzyme activity, inhibitor, absorbance; pH 7.4, with preincubation).
With `C[C@]12CC3CC(Nc4c(Nc5ccc(C(=O)N6CCC[C@H](C(=O)NCCCCC(=O)NO)C6)cc5)c(=O)c4=O)(C1)C[C@@](C)(C3)C2` the IC50 was 4520 nM (Ephx2; enzyme activity, inhibitor, fluorescence).
With `O=C(Nc1cccc(OC(F)(F)F)c1)N[C@H]1CC[C@H](Oc2ccc(C(=O)O)cc2)CC1` the IC50 was 1.3 nM (Ephx2; enzyme activity, inhibitor, fluorescence).
For `N#Cc1ccc(C[C@H](NC(=O)OCC2c3ccccc3-c3ccccc32)C(=O)O)cc1`, the IC50 was 2300 nM (Ephx2 N-terminal phosphatase domain; N-terminal phosphatase activity; mouse; 10 min preincubation, with: AttoPhos 15 µM).
`O=C(Nc1ccc(OC(F)(F)F)cc1)NC1CCN(C(=O)C2CC2)CC1` has an IC50 of 5.3 nM (Ephx2; enzyme activity, inhibitor, fluorescence; pH 7, with preincubation).
`CC(=O)N[C@@H](CSC/C=C(\C)CC/C=C(\C)CCC=C(C)C)C(=O)O` gave an IC50 of 100000 nM (Ephx2 N-terminal phosphatase domain; N-terminal phosphatase activity; mouse; 10 min preincubation, with: AttoPhos 15 µM).
`NC(=O)c1cccc(-c2cc(OC(=O)NC3CCCCC3)ccc2O)c1` gave an IC50 of 17800 nM (Ephx2; enzyme activity, inhibitor, fluorescence; pH 7.4).

For quick reference, copied from above:
`O=C(Nc1ccc(OC(F)(F)F)cc1)NC1CCN(C(=O)C2CC2)CC1` has an IC50 of 5.3 nM (Ephx2; enzyme activity, inhibitor, fluorescence; pH 7, with preincubation).
